{"data": "Results gathered from unrelated publications", "note": "A part holds a random share of what one study measured. Positions count from the first letter of the parent shown."}
{"data": "Study 1", "target": "ABI1, truncated, D143A, DHFR fusion (Arabidopsis thaliana)", "method": "DHFR PCA, deep sequencing", "sample": "yeast", "setting": "methotrexate growth selection, single substitutions", "together with": "(+)-ABA 58 µM", "baseline": "wild-type fitted maximum", "direction": "higher = stronger binding", "starting sequence": "PYL1, truncated, DHFR fusion (Arabidopsis thaliana); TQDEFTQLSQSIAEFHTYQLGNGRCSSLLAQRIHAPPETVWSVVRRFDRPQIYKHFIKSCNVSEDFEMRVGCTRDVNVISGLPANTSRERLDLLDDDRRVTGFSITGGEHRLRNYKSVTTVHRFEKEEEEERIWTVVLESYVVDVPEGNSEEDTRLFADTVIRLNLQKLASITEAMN; partner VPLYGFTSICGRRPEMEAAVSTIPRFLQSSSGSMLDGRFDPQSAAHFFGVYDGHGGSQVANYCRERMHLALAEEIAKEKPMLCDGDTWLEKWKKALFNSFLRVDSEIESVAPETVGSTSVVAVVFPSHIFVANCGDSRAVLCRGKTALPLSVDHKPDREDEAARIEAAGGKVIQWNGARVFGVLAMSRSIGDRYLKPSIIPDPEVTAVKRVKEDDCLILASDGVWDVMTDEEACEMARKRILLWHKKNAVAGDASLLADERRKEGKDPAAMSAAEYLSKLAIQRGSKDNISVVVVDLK"}
{"Substitution": "F157M", "relative binding score": "61%"}
{"Substitution": "Q19R", "relative binding score": "90.9%"}
{"Substitution": "E151N", "relative binding score": "75.6%"}
{"Substitution": "D3T", "relative binding score": "82.7%"}
{"Substitution": "N85T", "relative binding score": "91.7%"}
{"Substitution": "L156R", "relative binding score": "63.9%"}
{"Substitution": "V161S", "relative binding score": "5.4%"}
{"Substitution": "E131F", "relative binding score": "87%"}
{"Substitution": "T154I", "relative binding score": "51%"}
{"Substitution": "G148M", "relative binding score": "49.9%"}
{"Substitution": "E4W", "relative binding score": "84.7%"}
{"data": "Study 2", "target": "Centromere-binding protein 1, full length, His-tagged (CBF1, Saccharomyces cerevisiae, UniProt P17106, residues 1-351)", "method": "competition protein-binding microarray", "molecule type": "double-stranded DNA, one strand shown", "sample": "in vitro", "tested at": "2 µM", "setting": "whole 60-bp probe, lowest competitor level", "together with": "Pho4 competitor, 0.05 µM", "direction": "higher = stronger binding", "constant ends, left off below": "… GTCTTGATTCGCTTGACGCTGCTG", "UniProt P17106, sequence (whole entry, looked up)": "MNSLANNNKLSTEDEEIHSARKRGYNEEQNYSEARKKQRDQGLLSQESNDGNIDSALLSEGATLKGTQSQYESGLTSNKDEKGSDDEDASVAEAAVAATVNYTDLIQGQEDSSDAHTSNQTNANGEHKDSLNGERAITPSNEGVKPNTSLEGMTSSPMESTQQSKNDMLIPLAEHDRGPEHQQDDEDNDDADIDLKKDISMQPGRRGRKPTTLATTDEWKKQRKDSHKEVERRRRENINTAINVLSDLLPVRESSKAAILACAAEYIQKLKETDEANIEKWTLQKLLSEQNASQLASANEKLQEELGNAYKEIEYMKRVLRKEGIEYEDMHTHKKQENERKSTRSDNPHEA"}
{"Sequence": "TGAATTTTCGCGAGTCACGTCGTAACTCATATGCTT", "fluorescence intensity": "165 a.u."}
{"Sequence": "CATACCCAACCTTGTCACGTGTTTTAAGATATTTGT", "fluorescence intensity": "7290 a.u."}
{"Sequence": "CTTCCTCTTCGAACACACGTGCTTTACCCTTGAAGT", "fluorescence intensity": "1830 a.u."}
{"Sequence": "CCTTTAGCACATAACCATGTGATTTATCCTCGCTTA", "fluorescence intensity": "809 a.u."}
{"Sequence": "CATTGAAAAGCAAGTGACGTGACTCGAACTTGAAAG", "fluorescence intensity": "201 a.u."}
{"Sequence": "CGATTAGCTGAGGATCAGGCGGTACATTGCATACTC", "fluorescence intensity": "68.8 a.u."}
{"Sequence": "CTGAGTCCGACATCGCTCGTGTAGTTATTTGTAAAA", "fluorescence intensity": "78.1 a.u."}
{"Sequence": "TGCTGGCGCTGCTACGCCGTGACGGCTCATTTCATC", "fluorescence intensity": "59.2 a.u."}
{"Sequence": "CTTCTGTAAATTTGTATTGTGGGTGGACGCGCCCCG", "fluorescence intensity": "93.3 a.u."}
{"Sequence": "TGCGCAACAACTTGTCACATAACTTTATGTCTAGAA", "fluorescence intensity": "73.4 a.u."}
{"Sequence": "ACAGGACTTCCAGGACACGTTTCTGGATTCATCCCT", "fluorescence intensity": "103 a.u."}
{"Sequence": "AATATCCTCAACCTACACGTCTTCACCATCGGTACC", "fluorescence intensity": "55.9 a.u."}
{"Sequence": "GAATCAAAGGGTTTATCCGTGTCTGAACGCAATGTG", "fluorescence intensity": "69.9 a.u."}
{"Sequence": "TGGTTGAGTTTTACCCACGATACCGATATTCTGAAC", "fluorescence intensity": "87.4 a.u."}
{"Sequence": "AGTCCTTTTCTTATGCTCGTGGTGATTGTCAGTCTT", "fluorescence intensity": "93.7 a.u."}
{"Sequence": "AGGCGGGTATTCCACCTGGTGTGTTCAACATTGTAT", "fluorescence intensity": "64 a.u."}
{"Sequence": "TATTACGCCTGCAACCCCGTGCTAAGCTAGAATGTC", "fluorescence intensity": "211 a.u."}
{"Sequence": "CGCCTACAACTTTGGCGCGTGAGCCAAGTGTCTTCT", "fluorescence intensity": "87.7 a.u."}
{"Sequence": "TAAATAGTTTTTATATGTTTTTAGTAAAAGAAGAAA", "fluorescence intensity": "91.2 a.u."}
{"data": "Study 3", "target": "CCNB1, cyclin fold, Cln2 fusion (human)", "method": "yeast growth competition, sequencing", "sample": "yeast", "setting": "weak parent motif", "baseline": "not given", "direction": "higher = stronger binding", "starting sequence": "RB1 docking peptide (human); PKPLKKLRFDIEG"}
{"Substitution": "PKPLKKYRFDIEG [L7Y]", "normalised enrichment score": 0.092}
{"Substitution": "PKPLKKLLFDIEG [R8L]", "normalised enrichment score": -0.506}
{"Substitution": "PKPLKKERFDIEG [L7E]", "normalised enrichment score": -0.288}
{"Substitution": "PVPLKKLRFDIEG [K2V]", "normalised enrichment score": 0.804}
{"Substitution": "PKPLFKLRFDIEG [K5F]", "normalised enrichment score": 0.0935}
{"Substitution": "PKPCKKLRFDIEG [L4C]", "normalised enrichment score": 0.775}
{"Substitution": "PKPWKKLRFDIEG [L4W]", "normalised enrichment score": 0.674}
{"Substitution": "PKPLKKLRFDIEP [G13P]", "normalised enrichment score": 0.828}
{"Substitution": "PKPEKKLRFDIEG [L4E]", "normalised enrichment score": 0.372}
{"Substitution": "PKPLKKLRFDIHG [E12H]", "normalised enrichment score": 0.336}
{"Substitution": "PKPLKKKRFDIEG [L7K]", "normalised enrichment score": 0.535}
{"Substitution": "PYPLKKLRFDIEG [K2Y]", "normalised enrichment score": 1.12}
{"Substitution": "PAPLKKLRFDIEG [K2A]", "normalised enrichment score": -0.14}
{"Substitution": "PKPLKKLTFDIEG [R8T]", "normalised enrichment score": 0.421}
{"Substitution": "PKPLRKLRFDIEG [K5R]", "normalised enrichment score": 0.23}
{"Substitution": "PKPLKKLRFDIRG [E12R]", "normalised enrichment score": -0.0294}
{"Substitution": "PKPLKKLRFIIEG [D10I]", "normalised enrichment score": 0.362}
{"Substitution": "PKPLKKRRFDIEG [L7R]", "normalised enrichment score": 1.07}
{"data": "Study 4", "target": "UBE2E2 UBC core domain (UniProt Q96LR5)", "method": "yeast two-hybrid", "sample": "yeast", "setting": "mostly zero background", "baseline": "not given", "direction": "higher = stronger interaction", "B1": "DEF8 RING domain (UniProt Q6ZN54); chain AGRLGCSLTEIHTLFAKHIKLDCERCQAKGFVCELCREGDVLFPFDSHTSVCADCSAVFHRDCYYDNSTTCPKCARLSLRK", "B2": "RNF187 RING domain (UniProt Q5TA31); chain ALPAGPAEAACALCQRAPREPVRADCGHRFCRACVVRFWAEEDGPFPCPECADDCWQRAVEP", "B3": "RNF2 RING domain (UniProt Q99496); chain SPRSLHSELMCPICLDMLKNTMTTKECLHRFCADCIITALRSGNKECPTCRKKLVSKRSLR", "B4": "RNF122 RING domain (UniProt Q9H9V4); chain AKKLQLYGQTCAVCLEDFKGKDELGVLPCQHAFHRKCLVKWLEVRCVCPMCNKPIASPSEAT", "B5": "MKRN2 RING domain (UniProt Q9H000); chain FAFQASQDKVCSICMEVILEKASASERRFGILSNCNHTYCLSCIRQWRCAKQFENPIIKSCPECRVISEFVIPSV", "B6": "TRIM22 RING domain (UniProt Q8IYM9); chain VKVDIEKEVTCPICLELLTEPLSLDCGHSFCQACITAKIKESVIISRGESSCPVCQTRFQPGNLRP", "UniProt Q96LR5, sequence (whole entry, looked up)": "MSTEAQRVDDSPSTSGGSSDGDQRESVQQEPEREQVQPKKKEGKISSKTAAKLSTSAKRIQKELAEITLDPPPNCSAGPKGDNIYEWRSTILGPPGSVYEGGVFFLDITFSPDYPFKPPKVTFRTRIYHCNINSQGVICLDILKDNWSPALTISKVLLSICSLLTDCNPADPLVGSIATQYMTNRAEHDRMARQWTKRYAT"}
{"Molecule": "AEADPLGRFTCPVCLEVYEKPVQVPCGHVFCSACLQECLKPKKPVCGVCRSALAPGVRAV (RNF114 RING domain (UniProt Q9Y508))", "lacZ reporter activity": 0}
{"Molecule": "RYRQMEERITCPICIDSHIRLVFQCGHGACAPCGSALSACPICRQPIRDRIQIF (MIB2 RING domain (UniProt Q96AX9))", "lacZ reporter activity": 0}
{"Molecule": "FVKTVEDKYKCEKCHLVLCSPKQTECGHRFCESCMAALLSSSSPKCTACQESIVKDKVF (TRAF3 RING domain (UniProt Q13114))", "lacZ reporter activity": 0}
{"Molecule": "YCEMGSTFQLCKICAENDKDVKIEPCGHLMCTSCLTAWQESDGQGCPFCRCEIKGTEPII (CBLB RING domain (UniProt Q13191))", "lacZ reporter activity": 0}
{"Molecule": "B1 (DEF8 RING domain)", "lacZ reporter activity": 0}
{"Molecule": "B2 (RNF187 RING domain)", "lacZ reporter activity": 0}
{"Molecule": "B3 (RNF2 RING domain)", "lacZ reporter activity": 0}
{"Molecule": "B4 (RNF122 RING domain)", "lacZ reporter activity": 0}
{"Molecule": "B5 (MKRN2 RING domain)", "lacZ reporter activity": 0}
{"Molecule": "B6 (TRIM22 RING domain)", "lacZ reporter activity": 0}
{"note": "A few entries again (study 1):"}
{"Substitution": "D3T", "relative binding score": "82.7%"}
{"Substitution": "N85T", "relative binding score": "91.7%"}
{"Substitution": "L156R", "relative binding score": "63.9%"}
